Results from different studies.
Every numbered part comes from another study and shows a few of its results, in no order. ± gives the spread as reported.

Sample 1
Molecule: SNC80
Mode: agonist
For Delta-type opioid receptor, with β-arrestin1 (OPRD1, Homo sapiens, UniProt P41143); β-arrestin1 recruitment: Emax read 154 ± 8%.
For Delta-type opioid receptor, with Gi1 (OPRD1, Homo sapiens, UniProt P41143); Gi1 activation: Emax read 119 ± 2%.
Delta-type opioid receptor, with β-arrestin2 (OPRD1, Homo sapiens, UniProt P41143); β-arrestin2 recruitment — Emax: 125 ± 4%.
For Delta-type opioid receptor, with GoA (OPRD1, Homo sapiens, UniProt P41143); GoA activation: Emax read 115 ± 3%.
Delta-type opioid receptor, with GoB (OPRD1, Homo sapiens, UniProt P41143); GoB activation — Emax: 121 ± 3%.
It gave 121 ± 4% for Emax (Delta-type opioid receptor, with Gi2 (OPRD1, Homo sapiens, UniProt P41143); Gi2 activation).
For Delta-type opioid receptor, with Gz (OPRD1, Homo sapiens, UniProt P41143); Gz activation: Emax read 111 ± 3%.

Sample 2
Molecule: deucravacitinib
Technique: multiple ascending dose
Host: healthy human
Route: oral
It gave 0% for “subjects with influenza-like illness” (6 mg twice daily).
The “subjects with influenza-like illness” was 11.1% (2 mg twice daily).
The “subjects with influenza-like illness” was 0% (4 mg twice daily).

Other studies, line by line
`phoxim-oxon` gave an IC50 of 0.021 µM (Acetylcholinesterase (Ache, Rattus norvegicus, UniProt P37136); enzyme activity, inhibitor, Ellman; rat, postnatal day 70, lung homogenate; 15 min, 37 °C).
The inhibition of `human angiotensin II` is reported as 98.9% (Type-1 angiotensin II receptor (AGTR1, Homo sapiens, UniProt P30556); radioligand binding; concentration not given).
`Ac-DEVD-CHO` gave a Hill slope of -0.99 (Caspase-3 (CASP3, Homo sapiens, UniProt P42574); enzyme activity).
For `benzalkonium bromide`, the IC50 was 18.5 ± 7.8 µM (Cholinesterase (BCHE, Homo sapiens, UniProt P06276); enzyme activity, inhibitor; with Triton).
